Results pooled from the literature.
Numbered parts are unrelated; each lists some results of a single study. Changes are numbered by the printed parent chain.

Block 1
Target: FOS, bZIP domain (human)
Method: DHFR protein complementation
Sample: yeast
Notes: single substitutions, most at no-binding floor
Relative to: wild-type JUN-FOS pair
Direction: higher = stronger binding
Quantity: binding fitness
Starting sequence: JUN, bZIP domain (human); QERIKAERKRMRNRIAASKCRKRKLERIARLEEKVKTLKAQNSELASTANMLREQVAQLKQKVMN; partner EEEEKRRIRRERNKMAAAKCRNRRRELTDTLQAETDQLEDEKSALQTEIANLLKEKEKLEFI
Substitution = A49V; value = -0.0951 natural log
Substitution = L45N; value = -1.16 natural log
Substitution = I28N; value = -0.189 natural log
Substitution = N42C; value = 0.0991 natural log
Substitution = K34W; value = -0.0887 natural log
Substitution = K34D; value = -0.405 natural log
Substitution = L31P; value = -1.17 natural log
Substitution = L31R; value = -0.723 natural log

Block 2
Target: RNA binding protein fox-1 homolog 2, RRM domain, GST-SBP tag (RBFOX2, Homo sapiens, UniProt O43251-10, residues 100-194)
Method: RNA Bind-n-Seq
Molecule type: RNA
Sample: in vitro
Tested at: 365 nM
Notes: natural RNA segment, single round, ends assumed
Relative to: no-protein control
Direction: higher = stronger binding
Quantity: RBNS enrichment (R)
Constant ends, left off below: GGGAGUUCUACAGUCCGACGAUC … UGGAAUUCUCGGGUGCCAA
Construct (chain): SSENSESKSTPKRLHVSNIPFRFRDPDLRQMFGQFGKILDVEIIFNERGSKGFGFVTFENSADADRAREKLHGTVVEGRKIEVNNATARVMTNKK
Strand = CAAGGUGUCUCCUCUCAGUGCAGGGACAUGCCUGCUCUGUGGGGCAGGCGAGGACCCUGAAUCAUUUGGAGCCCAGAAGGAGGCAGACUGGCCAGGUCUCACCACCUCAG; value = 0.19
Strand = AGGUUCAAUCUUUCAGUGGCAGGCCAGCUAAACUUUCUAUAGUUUAAUGAUUAGCUGUGGUUAUGAUCUUGAGCCCUAACAUGCCACAUUACUCAAGAUUUACACAGGCA; value = 0.402
Strand = AAAGUCGUGGAGGAGCUAACUCGGAUCCAUAGCCAAGGACAGGAUCUCUUUUCCUGACCCUCCCUAAAGGCGUUGCCCUCCUAUCCUCCCCUCCCUUGCCCACCCUUGUU; value = 0.306
Strand = GAUUUAUGAACAGCUGUGUCUGCUACAUACACGUGCCCCUGUCUGAAGGCCAAGUGAUGGCUUCUGUUCUGGUGGCUUGAACUAACAGGUGGUGUAUCGCCACCUGACUC; value = 0.31
Strand = AGGCCUGUCAGCAAAGCACCUUCCUCUGCCCACAGCCAGUCAGAGAAAACGAUCCAAAGGAGGGCAGAGGCCGCACACCCUGGGCCGAGUCCUGCCCGACUUCCCAGUUA; value = 0.397
Strand = ACCAACGAAUUCACCAACCAGGGGUUUCUUUCCCUACCCUUUGUGAAAACCAAUCAAUUACUAGAUGAGUGGAUGGAUGCAGAAAAAUCUGGGCUGAGCCAAAGUCCCUU; value = 0.384
Strand = CCUAACACACAUAACCAUCAGCCAGAAGAUGCCGCAUGCUCCCCUGUGUCUGGAGGAUUUUGUCACCUACAAGCCUUGUCUUUACCUCACCUGCUCCCUGCCCAUAUCUA; value = 11.9
Strand = GACUUUUCAGUUUCAUAAGGAAGAGUGUUGCCUGAGGCCCUAGGGAAUAUUGGGGAAUAGAAGGGAUUGAGGAAACAUUAAUAAUAGUUAUUCAAAAGACCCAAAUGCUU; value = 0.472

Block 3
Target: Hepatocyte nuclear factor 3-beta, forkhead domain (FOXA2, Homo sapiens, UniProt Q9Y261, residues 142-269)
Method: protein-binding microarray
Molecule type: double-stranded DNA, one strand shown
Sample: in vitro
Tested at: not given
Notes: k-mer, scored over probes, only values ≥0.25
Direction: higher = stronger binding
Quantity: E-score
Target sequence (chain): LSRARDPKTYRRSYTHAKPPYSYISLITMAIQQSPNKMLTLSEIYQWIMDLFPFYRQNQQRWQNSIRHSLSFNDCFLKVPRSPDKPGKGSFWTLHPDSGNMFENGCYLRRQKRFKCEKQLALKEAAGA
Strand = TATTTGCA; value = 0.352
Strand = TACGTATA; value = 0.275
Strand = GGTTGTAA; value = 0.308
Strand = CGTAGTAA; value = 0.295
Strand = CAAACACA; value = 0.402
Strand = AACAGACT; value = 0.298
Strand = CAACTGTA; value = 0.276
Strand = ATCTACAG; value = 0.265

Mixed results
Starting sequence: viral docking peptide; TSVRRALFTGGSD; partner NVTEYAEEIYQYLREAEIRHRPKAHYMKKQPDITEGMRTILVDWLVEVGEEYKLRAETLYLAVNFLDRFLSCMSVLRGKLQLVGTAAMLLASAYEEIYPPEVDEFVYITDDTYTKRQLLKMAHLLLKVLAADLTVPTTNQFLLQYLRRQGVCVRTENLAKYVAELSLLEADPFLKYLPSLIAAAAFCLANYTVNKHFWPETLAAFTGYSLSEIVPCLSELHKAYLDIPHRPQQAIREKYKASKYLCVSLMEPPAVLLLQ
Substitution = TSTRRALFTGGSD [V3T]; target = CCNA1, cyclin fold, Cln2 fusion (human); assay = yeast growth competition, sequencing; test system = yeast; conditions = strong parent motif; scale = relative to: not given, higher = stronger binding; quantity = normalised enrichment score; value = 0.782

For quick reference, copied from above (block 1):
Substitution = L31R; value = -0.723 natural log
Substitution = K34W; value = -0.0887 natural log
